{"data": "Published values from different studies", "note": "A part holds a random share of what one study measured. “And” joins repeats or separate records; there may be more than shown.", "sequence of UniProt P19525 (whole entry, looked up)": "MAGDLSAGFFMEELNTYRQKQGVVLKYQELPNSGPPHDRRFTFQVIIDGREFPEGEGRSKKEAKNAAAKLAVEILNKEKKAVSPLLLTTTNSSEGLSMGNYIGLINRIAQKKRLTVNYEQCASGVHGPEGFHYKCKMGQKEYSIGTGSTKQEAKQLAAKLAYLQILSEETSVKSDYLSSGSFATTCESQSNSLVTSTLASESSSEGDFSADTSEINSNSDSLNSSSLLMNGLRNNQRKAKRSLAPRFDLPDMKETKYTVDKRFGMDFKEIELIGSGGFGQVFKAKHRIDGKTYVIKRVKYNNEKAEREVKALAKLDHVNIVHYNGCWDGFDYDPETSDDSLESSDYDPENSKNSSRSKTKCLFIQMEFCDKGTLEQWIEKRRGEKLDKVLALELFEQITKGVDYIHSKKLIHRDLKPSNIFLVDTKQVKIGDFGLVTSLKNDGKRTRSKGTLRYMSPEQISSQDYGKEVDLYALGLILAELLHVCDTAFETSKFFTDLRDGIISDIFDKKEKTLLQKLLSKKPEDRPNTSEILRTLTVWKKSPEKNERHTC", "sequence of UniProt P00519 (whole entry, looked up)": "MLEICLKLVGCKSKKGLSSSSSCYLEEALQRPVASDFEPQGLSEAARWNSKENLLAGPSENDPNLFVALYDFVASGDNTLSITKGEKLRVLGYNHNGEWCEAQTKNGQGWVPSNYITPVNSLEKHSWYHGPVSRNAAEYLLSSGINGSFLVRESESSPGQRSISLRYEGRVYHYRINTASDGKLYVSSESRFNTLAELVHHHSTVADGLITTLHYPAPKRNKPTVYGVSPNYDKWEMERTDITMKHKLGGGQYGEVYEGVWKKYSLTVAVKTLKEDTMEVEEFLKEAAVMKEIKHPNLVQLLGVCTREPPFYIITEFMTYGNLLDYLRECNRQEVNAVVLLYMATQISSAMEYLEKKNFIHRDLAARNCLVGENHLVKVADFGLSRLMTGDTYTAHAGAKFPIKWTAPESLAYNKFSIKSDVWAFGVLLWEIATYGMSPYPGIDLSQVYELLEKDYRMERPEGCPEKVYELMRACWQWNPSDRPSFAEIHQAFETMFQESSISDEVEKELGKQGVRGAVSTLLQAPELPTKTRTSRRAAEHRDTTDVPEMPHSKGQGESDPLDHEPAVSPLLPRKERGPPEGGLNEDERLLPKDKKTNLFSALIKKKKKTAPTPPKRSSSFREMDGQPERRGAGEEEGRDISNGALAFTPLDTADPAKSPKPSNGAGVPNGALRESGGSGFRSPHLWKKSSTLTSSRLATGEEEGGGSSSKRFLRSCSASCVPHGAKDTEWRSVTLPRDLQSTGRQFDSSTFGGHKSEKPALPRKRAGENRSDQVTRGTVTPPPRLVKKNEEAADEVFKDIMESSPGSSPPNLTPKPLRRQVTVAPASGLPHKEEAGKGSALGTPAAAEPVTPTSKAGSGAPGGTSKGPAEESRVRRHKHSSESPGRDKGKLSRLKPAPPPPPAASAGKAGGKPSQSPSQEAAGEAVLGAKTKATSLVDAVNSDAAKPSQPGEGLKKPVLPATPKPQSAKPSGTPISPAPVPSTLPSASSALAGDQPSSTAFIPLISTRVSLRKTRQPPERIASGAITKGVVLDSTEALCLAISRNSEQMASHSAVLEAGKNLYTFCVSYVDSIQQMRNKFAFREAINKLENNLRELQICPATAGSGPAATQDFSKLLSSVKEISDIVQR", "sequence of UniProt P35968 (whole entry, looked up)": "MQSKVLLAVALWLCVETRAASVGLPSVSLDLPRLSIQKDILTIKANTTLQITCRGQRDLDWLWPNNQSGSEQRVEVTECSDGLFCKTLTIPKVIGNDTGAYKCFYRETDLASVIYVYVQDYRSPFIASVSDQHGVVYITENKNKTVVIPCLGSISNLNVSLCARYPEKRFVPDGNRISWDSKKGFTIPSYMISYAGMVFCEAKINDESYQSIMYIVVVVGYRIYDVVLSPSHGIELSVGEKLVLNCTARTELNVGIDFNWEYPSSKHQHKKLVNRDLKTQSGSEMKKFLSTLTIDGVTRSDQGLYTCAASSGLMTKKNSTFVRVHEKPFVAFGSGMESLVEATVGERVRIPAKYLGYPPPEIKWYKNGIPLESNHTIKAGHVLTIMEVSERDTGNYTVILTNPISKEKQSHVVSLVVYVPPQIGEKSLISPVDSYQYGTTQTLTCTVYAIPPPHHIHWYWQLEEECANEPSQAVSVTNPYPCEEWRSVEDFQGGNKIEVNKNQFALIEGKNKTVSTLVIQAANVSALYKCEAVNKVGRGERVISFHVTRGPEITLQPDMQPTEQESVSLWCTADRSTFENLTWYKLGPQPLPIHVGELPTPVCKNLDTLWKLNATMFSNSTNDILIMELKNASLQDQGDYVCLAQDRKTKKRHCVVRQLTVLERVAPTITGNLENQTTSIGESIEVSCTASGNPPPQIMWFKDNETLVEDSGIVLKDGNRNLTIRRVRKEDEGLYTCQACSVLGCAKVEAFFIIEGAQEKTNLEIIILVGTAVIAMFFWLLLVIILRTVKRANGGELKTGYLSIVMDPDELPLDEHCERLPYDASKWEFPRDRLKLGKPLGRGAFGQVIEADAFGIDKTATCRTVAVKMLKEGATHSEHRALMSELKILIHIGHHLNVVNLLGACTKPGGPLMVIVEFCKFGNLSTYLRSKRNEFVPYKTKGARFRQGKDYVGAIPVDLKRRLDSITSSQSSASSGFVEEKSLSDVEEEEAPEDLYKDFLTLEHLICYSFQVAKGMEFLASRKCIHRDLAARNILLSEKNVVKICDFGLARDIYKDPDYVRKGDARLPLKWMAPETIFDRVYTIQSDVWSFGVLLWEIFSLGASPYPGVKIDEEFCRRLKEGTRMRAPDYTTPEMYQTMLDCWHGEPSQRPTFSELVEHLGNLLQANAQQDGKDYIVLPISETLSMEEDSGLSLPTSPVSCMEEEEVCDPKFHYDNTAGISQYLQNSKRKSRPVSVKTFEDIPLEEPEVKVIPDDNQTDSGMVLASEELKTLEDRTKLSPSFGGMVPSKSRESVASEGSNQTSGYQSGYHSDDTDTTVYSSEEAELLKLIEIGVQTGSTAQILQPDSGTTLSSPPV", "sequence of UniProt Q8NEB9 (whole entry, looked up)": "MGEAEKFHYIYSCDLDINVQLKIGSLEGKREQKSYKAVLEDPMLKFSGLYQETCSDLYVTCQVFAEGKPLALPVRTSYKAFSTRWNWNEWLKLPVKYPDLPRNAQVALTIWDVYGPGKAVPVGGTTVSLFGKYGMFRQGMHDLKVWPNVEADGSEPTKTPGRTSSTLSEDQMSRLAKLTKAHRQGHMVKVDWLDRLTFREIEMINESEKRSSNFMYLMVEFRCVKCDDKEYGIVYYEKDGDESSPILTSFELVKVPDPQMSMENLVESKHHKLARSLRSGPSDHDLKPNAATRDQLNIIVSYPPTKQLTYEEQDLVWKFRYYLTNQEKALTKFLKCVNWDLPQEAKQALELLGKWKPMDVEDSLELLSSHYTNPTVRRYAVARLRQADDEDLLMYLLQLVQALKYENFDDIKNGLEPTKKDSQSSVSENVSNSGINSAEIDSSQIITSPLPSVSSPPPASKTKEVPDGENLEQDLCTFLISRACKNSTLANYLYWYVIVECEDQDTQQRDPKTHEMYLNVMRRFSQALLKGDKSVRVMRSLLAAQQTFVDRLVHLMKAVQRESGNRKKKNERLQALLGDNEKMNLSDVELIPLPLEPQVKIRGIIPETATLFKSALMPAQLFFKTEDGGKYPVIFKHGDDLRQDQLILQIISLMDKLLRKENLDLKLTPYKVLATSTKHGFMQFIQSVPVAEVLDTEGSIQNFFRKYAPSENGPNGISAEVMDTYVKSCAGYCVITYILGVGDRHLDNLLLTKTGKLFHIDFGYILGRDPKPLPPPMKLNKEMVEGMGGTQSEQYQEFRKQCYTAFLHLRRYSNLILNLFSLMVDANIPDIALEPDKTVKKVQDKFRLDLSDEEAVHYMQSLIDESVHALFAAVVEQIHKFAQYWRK", "sequence of UniProt Q96GD4 (whole entry, looked up)": "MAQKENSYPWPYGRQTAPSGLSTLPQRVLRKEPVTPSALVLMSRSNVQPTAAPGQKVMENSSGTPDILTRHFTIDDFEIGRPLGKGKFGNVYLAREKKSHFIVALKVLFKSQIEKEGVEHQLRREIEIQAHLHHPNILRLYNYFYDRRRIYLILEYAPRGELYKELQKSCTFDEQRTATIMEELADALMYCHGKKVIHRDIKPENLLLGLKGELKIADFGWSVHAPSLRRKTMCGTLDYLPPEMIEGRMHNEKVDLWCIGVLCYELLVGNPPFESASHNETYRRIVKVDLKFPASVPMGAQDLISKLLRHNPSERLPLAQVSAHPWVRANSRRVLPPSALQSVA"}
{"data": "Sample 1", "target": "Serine/threonine-protein kinase B-raf (BRAF, Homo sapiens, UniProt P15056)", "read-out": "enzyme activity", "action": "inhibitor", "tested at": "0.5 µM", "reference": "control", "sequence of UniProt P15056 (whole entry, looked up)": "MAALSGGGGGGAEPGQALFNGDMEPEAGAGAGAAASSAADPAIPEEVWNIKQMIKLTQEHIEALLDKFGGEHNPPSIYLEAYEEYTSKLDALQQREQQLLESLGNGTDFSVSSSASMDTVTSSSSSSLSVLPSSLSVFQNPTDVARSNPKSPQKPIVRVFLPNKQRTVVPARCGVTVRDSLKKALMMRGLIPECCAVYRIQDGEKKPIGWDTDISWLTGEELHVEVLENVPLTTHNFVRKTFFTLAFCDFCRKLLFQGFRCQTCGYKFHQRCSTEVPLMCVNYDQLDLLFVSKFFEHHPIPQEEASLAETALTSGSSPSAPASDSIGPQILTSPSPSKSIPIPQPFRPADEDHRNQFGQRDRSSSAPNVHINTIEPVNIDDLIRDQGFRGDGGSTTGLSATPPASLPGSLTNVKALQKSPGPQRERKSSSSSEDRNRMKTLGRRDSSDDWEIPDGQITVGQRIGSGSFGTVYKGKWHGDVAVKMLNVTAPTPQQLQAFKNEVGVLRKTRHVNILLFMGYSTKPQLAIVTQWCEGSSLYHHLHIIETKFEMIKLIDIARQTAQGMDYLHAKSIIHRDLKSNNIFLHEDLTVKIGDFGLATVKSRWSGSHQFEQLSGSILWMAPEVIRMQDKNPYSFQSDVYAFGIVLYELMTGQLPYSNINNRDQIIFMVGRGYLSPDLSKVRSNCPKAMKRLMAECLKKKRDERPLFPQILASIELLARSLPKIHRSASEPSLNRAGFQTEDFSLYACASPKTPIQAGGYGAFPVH"}
{"SMILES": "O=c1cc(N2CCOCC2)oc2c(-c3ccccc3)cccc12", "remaining activity [%]": 95.9}
{"SMILES": "O=C1Nc2ccc(Br)cc2/C1=C/c1cc2c([nH]1)CCCC2", "remaining activity [%]": 92.5}
{"SMILES": "c1ccc(-c2n[nH]c3c2oc2ccccc23)cc1", "remaining activity [%]": 96.9}
{"SMILES": "c1ccc2c(-c3ccncc3)c[nH]c2c1", "remaining activity [%]": 94}
{"SMILES": "CN(C)S(=O)(=O)c1ccc2c(c1)/C(=C/c1cc3c([nH]1)CCCC3)C(=O)N2", "remaining activity [%]": 89.2}
{"data": "Sample 2", "cell line": "mouse MPNST tumor cells", "technique": "high-content nuclear imaging", "item": "cell number", "tested at": "10 µM", "time": "12 h", "setting": "mean of 2 replicates", "reference": "plate mean", "reading": "higher = more cells"}
{"Compound": "C=CC(=O)N1C[C@H](Nc2ncnc3[nH]ccc23)CC[C@@H]1C", "nuclei count": "0.402 z-score"}
{"Compound": "Cc1onc(-c2ccccc2)c1-c1ccc(S(N)(=O)=O)cc1", "nuclei count": "2.03 z-score and 1.2 z-score"}
{"Compound": "Nc1ccc(S(=O)(=O)c2ccc(N)cc2)cc1", "nuclei count": "0.122 z-score"}
{"Compound": "O=C(Nc1ccc(Oc2ccc(Cl)cn2)c(Cl)c1)c1ccccn1", "nuclei count": "1.16 z-score"}
{"Compound": "O=c1cc(CN2CCOCC2)occ1OCCCCCSc1ccnc2cc(C(F)(F)F)ccc12", "nuclei count": "1.97 z-score"}
{"Compound": "COc1ccc(S(=O)(=O)N2C(=O)[C@@](c3ccccc3OC)(N3C[C@H](O)C[C@H]3C(=O)N(C)C)c3cc(Cl)ccc32)c(OC)c1", "nuclei count": "1.63 z-score"}
{"Compound": "COc1ccccc1N1CCN(CCCNc2cc(=O)n(C)c(=O)n2C)CC1", "nuclei count": "1.24 z-score"}
{"Compound": "Cc1cccc(-c2[nH]ncc2-c2ccc3ncccc3n2)n1", "nuclei count": "0.913 z-score"}
{"data": "Sample 3", "SMILES": "Cc1noc([C@H]2C[C@@H](c3ccc(C(F)(F)F)cc3)CN(C(=O)N3CCS(=O)(=O)C3)C2)n1", "tested at": "1 µM"}
{"target": "Mast/stem cell growth factor receptor Kit (KIT, Homo sapiens, UniProt P10721, D816H)", "read-out": "cell-free assay", "technique": "competition with immobilised ligand", "remaining binding [%]": 100}
{"target": "Phosphatidylinositol 3-kinase catalytic subunit type 3 (PIK3C3, Homo sapiens, UniProt Q8NEB9)", "read-out": "cell-free assay", "technique": "competition with immobilised ligand", "remaining binding [%]": 90}
{"target": "Serine/threonine-protein kinase Nek4 (NEK4, Homo sapiens, UniProt P51957)", "read-out": "cell-free assay", "technique": "competition with immobilised ligand", "remaining binding [%]": 82}
{"target": "Receptor-interacting serine/threonine-protein kinase 4 (RIPK4, Homo sapiens, UniProt P57078)", "read-out": "cell-free assay", "technique": "competition with immobilised ligand", "remaining binding [%]": 68}
{"target": "Calcium/calmodulin-dependent protein kinase type II subunit delta (CAMK2D, Homo sapiens, UniProt Q13557)", "read-out": "cell-free assay", "technique": "competition with immobilised ligand", "remaining binding [%]": 100}
{"target": "Death-associated protein kinase 3 (DAPK3, Homo sapiens, UniProt O43293)", "read-out": "cell-free assay", "technique": "competition with immobilised ligand", "remaining binding [%]": 100}
{"target": "Interferon-induced, double-stranded RNA-activated protein kinase (EIF2AK2, Homo sapiens, UniProt P19525)", "read-out": "cell-free assay", "technique": "competition with immobilised ligand", "remaining binding [%]": 100}
{"target": "Tyrosine-protein kinase Fer (FER, Homo sapiens, UniProt P16591)", "read-out": "cell-free assay", "technique": "competition with immobilised ligand", "remaining binding [%]": 82}
{"target": "Proto-oncogene tyrosine-protein kinase receptor Ret (RET, Homo sapiens, UniProt P07949, M918T)", "read-out": "cell-free assay", "technique": "competition with immobilised ligand", "remaining binding [%]": 100}
{"target": "Vascular endothelial growth factor receptor 1 (FLT1, Homo sapiens, UniProt P17948)", "read-out": "cell-free assay", "technique": "competition with immobilised ligand", "remaining binding [%]": 100}
{"target": "Cyclin-G-associated kinase (GAK, Homo sapiens, UniProt O14976)", "read-out": "cell-free assay", "technique": "competition with immobilised ligand", "remaining binding [%]": 97}
{"target": "Receptor-type tyrosine-protein kinase FLT3 (FLT3, Homo sapiens, UniProt P36888, D835Y)", "read-out": "cell-free assay", "technique": "competition with immobilised ligand", "remaining binding [%]": 100}
{"target": "Myosin-IIIb (MYO3B, Homo sapiens, UniProt Q8WXR4)", "read-out": "binding", "technique": "competition with immobilised ligand", "remaining binding [%]": 100}
{"target": "Serine/threonine-protein kinase SIK1 (SIK1, Homo sapiens, UniProt P57059)", "technique": "competition binding", "remaining binding [%]": 100}
{"target": "Vascular endothelial growth factor receptor 2 (KDR, Homo sapiens, UniProt P35968)", "read-out": "cell-free assay", "technique": "competition with immobilised ligand", "remaining binding [%]": 100}
{"target": "Epidermal growth factor receptor (EGFR, Homo sapiens, UniProt P00533, A750P/del747-749)", "read-out": "cell-free assay", "technique": "competition with immobilised ligand", "remaining binding [%]": 100}
{"target": "Phosphatidylinositol 5-phosphate 4-kinase type-2 beta (PIP4K2B, Homo sapiens, UniProt P78356)", "read-out": "cell-free assay", "technique": "competition with immobilised ligand", "remaining binding [%]": 100}
{"target": "Tyrosine-protein kinase ABL1, phosphorylated (ABL1, Homo sapiens, UniProt P00519)", "read-out": "cell-free assay", "technique": "competition with immobilised ligand", "remaining binding [%]": 100}
{"target": "Aurora kinase B (AURKB, Homo sapiens, UniProt Q96GD4)", "read-out": "cell-free assay", "technique": "competition with immobilised ligand", "remaining binding [%]": 100}
{"target": "Receptor-type tyrosine-protein kinase FLT3 (FLT3, Homo sapiens, UniProt P36888, ITD)", "read-out": "cell-free assay", "technique": "competition with immobilised ligand", "remaining binding [%]": 100}
{"data": "Sample 4", "host": "human", "sample": "microsomes or S9", "tested at": "2 µM", "time": "0.5 h"}
{"Compound": "CCOc1ccc(OCC)c(NC(=O)c2cc3c(Cl)ccc4c3n2CCO4)c1", "remaining compound [%]": 52.9}
{"Compound": "CCOC(=O)c1[nH]c(C)c(C(=O)CN(CC(C)C)C(=O)CC)c1C", "remaining compound [%]": 84.6}
{"Compound": "Cc1nc(-c2ccc3c(c2)CCN3C(=O)Cc2c[nH]c3ccccc23)cs1", "remaining compound [%]": 28.6}
{"Compound": "CCOCc1cc(-c2ccccc2)[nH]c(=O)c1C#N", "remaining compound [%]": "> 99"}
{"Compound": "Cn1nc2n(c1=O)CCN(C(=O)CCn1cnnn1)CC2", "remaining compound [%]": 72.6}
{"Compound": "COc1ccc(C2=NOC(c3ccc(-c4nnn[nH]4)cc3)C2)cc1 (stereo not drawn)", "remaining compound [%]": 21.9}
{"Compound": "Clc1ccc(Cc2nc3c4cn[nH]c4ncn3n2)cc1", "remaining compound [%]": 96.7}
{"Compound": "Cn1c(N2CCN(C(=O)c3cc4cc(Cl)ccc4[nH]3)CC2)cc(=O)n(C)c1=O", "remaining compound [%]": "> 100"}
{"data": "Mixed results"}
{"SMILES": "CC(C)C[C@H]1NC(=O)[C@H](N(C)C(=O)[C@@H](CC2CCC2)NC(=O)[C@H]2C[C@H](F)CN2C(=O)C2(C(F)(F)F)CC(F)(F)C2)CCCCNC(=O)C2(CC2)NC(=O)[C@@H](Cc2cc(Cl)ccc2Cl)N(C)C1=O", "cell line": "NCI-H1299", "technique": "Vi-Cell counting", "tested at": "200 nM", "time": "6 days", "reference": "DMSO", "quantity": "cell count", "result": "1.02 and 1.05 and 0.97"}
{"note": "Repeated from above (sample 3):"}
{"target": "Myosin-IIIb (MYO3B, Homo sapiens, UniProt Q8WXR4)", "read-out": "binding", "technique": "competition with immobilised ligand", "remaining binding [%]": 100}
{"target": "Serine/threonine-protein kinase SIK1 (SIK1, Homo sapiens, UniProt P57059)", "technique": "competition binding", "remaining binding [%]": 100}
{"target": "Vascular endothelial growth factor receptor 2 (KDR, Homo sapiens, UniProt P35968)", "read-out": "cell-free assay", "technique": "competition with immobilised ligand", "remaining binding [%]": 100}
{"target": "Epidermal growth factor receptor (EGFR, Homo sapiens, UniProt P00533, A750P/del747-749)", "read-out": "cell-free assay", "technique": "competition with immobilised ligand", "remaining binding [%]": 100}
{"target": "Phosphatidylinositol 5-phosphate 4-kinase type-2 beta (PIP4K2B, Homo sapiens, UniProt P78356)", "read-out": "cell-free assay", "technique": "competition with immobilised ligand", "remaining binding [%]": 100}
{"target": "Tyrosine-protein kinase ABL1, phosphorylated (ABL1, Homo sapiens, UniProt P00519)", "read-out": "cell-free assay", "technique": "competition with immobilised ligand", "remaining binding [%]": 100}
